Results from different studies.
Every numbered part comes from another study and shows a few of its results, in no order.
Chain of UniProt P10721 (whole entry, unmodified, looked up): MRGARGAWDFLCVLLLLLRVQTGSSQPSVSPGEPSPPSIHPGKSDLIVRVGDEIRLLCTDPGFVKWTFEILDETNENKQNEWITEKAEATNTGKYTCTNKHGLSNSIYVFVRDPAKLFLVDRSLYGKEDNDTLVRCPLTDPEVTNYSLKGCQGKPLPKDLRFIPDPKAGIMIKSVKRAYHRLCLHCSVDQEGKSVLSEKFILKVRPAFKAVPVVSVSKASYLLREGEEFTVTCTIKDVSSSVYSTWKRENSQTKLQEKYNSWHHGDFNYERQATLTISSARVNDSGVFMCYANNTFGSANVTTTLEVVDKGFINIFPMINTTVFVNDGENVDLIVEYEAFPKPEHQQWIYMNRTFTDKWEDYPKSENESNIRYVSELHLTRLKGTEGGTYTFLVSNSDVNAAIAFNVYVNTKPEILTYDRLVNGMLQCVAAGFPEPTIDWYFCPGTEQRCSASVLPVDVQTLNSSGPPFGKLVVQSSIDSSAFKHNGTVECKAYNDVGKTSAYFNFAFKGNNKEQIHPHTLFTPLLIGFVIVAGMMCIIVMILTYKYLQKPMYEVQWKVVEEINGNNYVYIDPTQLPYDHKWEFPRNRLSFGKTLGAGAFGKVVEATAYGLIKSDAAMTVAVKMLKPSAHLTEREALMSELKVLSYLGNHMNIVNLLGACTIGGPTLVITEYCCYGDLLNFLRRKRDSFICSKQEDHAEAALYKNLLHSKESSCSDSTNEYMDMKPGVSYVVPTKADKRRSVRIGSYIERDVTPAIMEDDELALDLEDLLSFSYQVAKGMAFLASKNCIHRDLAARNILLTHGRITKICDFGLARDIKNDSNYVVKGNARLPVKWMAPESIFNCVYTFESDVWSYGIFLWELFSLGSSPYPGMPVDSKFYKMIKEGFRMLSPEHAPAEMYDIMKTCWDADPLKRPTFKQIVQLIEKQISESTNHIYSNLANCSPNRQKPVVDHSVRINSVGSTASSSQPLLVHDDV

Series 1 — technique: universal PBM; form: double-stranded DNA, one strand shown; medium: in vitro; concentration: not given; reading: higher = stronger binding
Target: Sal-like protein 4, full length isoform B (SALL4, Homo sapiens, UniProt Q9UJQ4-2, residues 1-616)
Setting: 8-mer, flanks averaged, mean of replicates
Strand	E-score
TCTCTGAA	-0.107
CGAATACG	-0.0129
CCCGTCCG	-0.401
GACCCAGA	-0.206
CTTAATCA	0.208
CTCATGTA	0.222
CTAGCCTC	-0.172
TGGCCGAA	-0.135

Series 2 — technique: aptamer microarray, sandwich; form: DNA with 2'F-ANA; medium: in vitro; concentration: 200 nM; together with: Cy3 exosite-II aptamer, 400 nM; reading: higher = stronger binding; strand: GGTTGGTGTGGTTGG
Target: Prothrombin, mature alpha-thrombin (F2, Homo sapiens, UniProt P00734)
Setting: whole 15-mer aptamer, many near background
Modification	mean fluorescence intensity [a.u.]
2'F-ANA at 2 4 5 7 8 12	192
2'F-ANA at 3 4 7 8 12 14 15	538
2'F-ANA at 2 3 6 8 10 12 14	263
2'F-ANA at 2 6 7 8 11 12 13 14	162
2'F-ANA at 1 3 4 6 7 9 11 14	69.4
2'F-ANA at 1 3 5 8 9 11 12 13	81.2
2'F-ANA at 1 3 7 9 10 13 15	79.1
2'F-ANA at 1 4 5 6 11 12	81.1

Mixed results
Molecule	target	assay	test system	conditions	scale	endpoint	result
Cc1cc(-n2nc(Cc3cc(F)cc(C(F)(F)F)c3)nc2C)ccc1C(N)=O	KIT (Homo sapiens, UniProt P10721, V559D/V654A)	cell-free assay, competition with immobilised ligand	–	1 µM	–	remaining binding	97%
PhoQ, residues 284 288 289 292 302 303 NSMLDC	PhoP, residues 12 14 15 18 19 SGWQI (Escherichia coli, UniProt P23836)	Sort-seq, measured: YFP reporter	E. coli	PhoQ-PhoP variant library, together with: 10 µM Mg2+	baseline: high Mg2+ state, higher = stronger signaling	fold induction	10.2

A few entries again (series 2):
Modification	mean fluorescence intensity [a.u.]
2'F-ANA at 2 6 7 8 11 12 13 14	162
